Results pooled from the literature.
Parts stem from different laboratories: compare values within a part only.
UniProt O94806, sequence (whole entry, looked up): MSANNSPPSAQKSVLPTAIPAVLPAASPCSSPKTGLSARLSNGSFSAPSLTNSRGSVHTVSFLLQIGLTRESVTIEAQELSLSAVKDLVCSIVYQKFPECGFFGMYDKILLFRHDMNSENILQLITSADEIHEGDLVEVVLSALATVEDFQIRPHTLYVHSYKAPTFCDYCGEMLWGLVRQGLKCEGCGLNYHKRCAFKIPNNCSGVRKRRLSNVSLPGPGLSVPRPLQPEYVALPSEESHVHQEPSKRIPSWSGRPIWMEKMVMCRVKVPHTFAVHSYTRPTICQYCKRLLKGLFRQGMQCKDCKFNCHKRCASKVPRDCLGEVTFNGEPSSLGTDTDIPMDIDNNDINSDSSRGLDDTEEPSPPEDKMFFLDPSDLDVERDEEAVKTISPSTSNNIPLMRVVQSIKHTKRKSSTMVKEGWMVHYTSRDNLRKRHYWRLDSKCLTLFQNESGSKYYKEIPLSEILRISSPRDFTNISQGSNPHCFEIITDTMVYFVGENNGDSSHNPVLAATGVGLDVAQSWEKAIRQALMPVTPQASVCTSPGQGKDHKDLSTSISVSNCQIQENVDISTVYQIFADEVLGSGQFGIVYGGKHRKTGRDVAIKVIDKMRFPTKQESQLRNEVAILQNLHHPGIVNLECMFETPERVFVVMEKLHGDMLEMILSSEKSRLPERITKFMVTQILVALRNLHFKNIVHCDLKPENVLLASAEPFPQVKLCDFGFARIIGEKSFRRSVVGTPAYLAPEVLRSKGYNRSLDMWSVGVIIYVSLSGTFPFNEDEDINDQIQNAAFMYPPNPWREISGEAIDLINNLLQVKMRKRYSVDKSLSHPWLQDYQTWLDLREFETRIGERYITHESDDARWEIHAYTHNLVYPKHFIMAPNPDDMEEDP
UniProt P49841, sequence (whole entry, looked up): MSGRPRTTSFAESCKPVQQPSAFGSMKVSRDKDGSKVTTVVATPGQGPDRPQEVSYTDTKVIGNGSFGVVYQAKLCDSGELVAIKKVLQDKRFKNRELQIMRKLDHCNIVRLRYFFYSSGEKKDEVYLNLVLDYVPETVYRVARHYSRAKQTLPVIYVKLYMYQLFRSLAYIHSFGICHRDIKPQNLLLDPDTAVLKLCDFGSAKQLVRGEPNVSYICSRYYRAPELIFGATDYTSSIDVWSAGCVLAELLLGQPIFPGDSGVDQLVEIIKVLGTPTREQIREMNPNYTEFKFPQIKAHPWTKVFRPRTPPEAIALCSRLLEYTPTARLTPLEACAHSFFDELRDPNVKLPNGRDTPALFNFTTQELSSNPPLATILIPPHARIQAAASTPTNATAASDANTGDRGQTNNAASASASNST
UniProt Q99759, sequence (whole entry, looked up): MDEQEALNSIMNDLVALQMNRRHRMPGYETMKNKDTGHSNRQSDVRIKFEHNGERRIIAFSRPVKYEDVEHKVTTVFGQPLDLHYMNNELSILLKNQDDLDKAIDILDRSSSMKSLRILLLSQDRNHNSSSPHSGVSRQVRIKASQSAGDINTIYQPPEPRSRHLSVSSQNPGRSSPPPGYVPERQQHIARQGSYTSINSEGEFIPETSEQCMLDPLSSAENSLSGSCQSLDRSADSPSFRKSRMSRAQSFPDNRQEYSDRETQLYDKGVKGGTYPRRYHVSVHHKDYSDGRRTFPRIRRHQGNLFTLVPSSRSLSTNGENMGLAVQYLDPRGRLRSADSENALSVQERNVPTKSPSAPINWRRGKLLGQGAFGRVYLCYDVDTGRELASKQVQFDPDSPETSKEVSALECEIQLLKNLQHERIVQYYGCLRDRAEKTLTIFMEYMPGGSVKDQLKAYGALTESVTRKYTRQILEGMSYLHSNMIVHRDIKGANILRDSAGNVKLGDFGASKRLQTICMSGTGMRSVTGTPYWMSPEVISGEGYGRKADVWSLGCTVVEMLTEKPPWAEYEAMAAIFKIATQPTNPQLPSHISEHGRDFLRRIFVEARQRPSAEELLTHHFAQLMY

Study 1
Target: PABPC1L2, full length, GST fusion (mouse, UniProt A0ABA7IW68)
Technique: RNAcompete
Form: RNA
Sample: in vitro
Tested at: 20 nM
Setting: 7-mer, probes averaged, single round
Relative to: mean of 7-mers
Direction: higher = stronger binding
Construct (chain): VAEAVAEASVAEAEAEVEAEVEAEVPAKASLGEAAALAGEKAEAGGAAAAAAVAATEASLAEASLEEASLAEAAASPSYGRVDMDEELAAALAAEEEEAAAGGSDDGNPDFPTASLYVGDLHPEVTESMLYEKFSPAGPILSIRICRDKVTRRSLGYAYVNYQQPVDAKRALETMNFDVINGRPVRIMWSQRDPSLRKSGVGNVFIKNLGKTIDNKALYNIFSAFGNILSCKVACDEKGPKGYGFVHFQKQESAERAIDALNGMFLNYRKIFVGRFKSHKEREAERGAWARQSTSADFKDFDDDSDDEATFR
The 7-mer Z-score of `GGGACGC` is reported as 0.209.
`AGAGCUU` has a 7-mer Z-score of -0.28.
For `GGACGCU`, the 7-mer Z-score was 0.00617.
`CUAGUUG` gave a 7-mer Z-score of -0.257.
With `UAUCGCU` the 7-mer Z-score was -0.284.
`CAACCGC` gave a 7-mer Z-score of -0.106.
`GGCGUUU` gave a 7-mer Z-score of -0.293.
For `AGGCAUA`, the 7-mer Z-score was 0.2.

Study 2
Target: TAR DNA-binding protein 43, full length, His tag (TARDBP, Homo sapiens, UniProt Q13148, residues 1-414)
Technique: RNA Bind-n-Seq
Form: RNA
Sample: in vitro
Tested at: 20 nM
Setting: 6-mer, flanks averaged, single round
Together with: 150 mM KCl
Relative to: input library
Direction: higher = stronger binding
For `GACGUC`, “6-mer enrichment (R)” read 0.821.
`UUUCUU` — result for “6-mer enrichment (R)”: 0.647.
`AAGACU`: “6-mer enrichment (R)” 0.613.
`CUCGUA`: “6-mer enrichment (R)” 0.575.
`UCGCGA`: “6-mer enrichment (R)” 0.771.
`AUCCUC`: “6-mer enrichment (R)” 0.545.
Under “6-mer enrichment (R)”, `CGCGCU` is recorded as 0.789.
Under “6-mer enrichment (R)”, `UAGCCU` is recorded as 0.631.

Study 3
SMILES: Cc1c(NC(=O)c2cc(C(N)=O)nc3cc(F)ccc23)c(C(F)(F)F)nn1Cc1ccc(C#N)cc1
Effect on: cell-free assay
Technique: competition with immobilised ligand
Tested at: 1 µM
The remaining binding was 88% (Glycogen synthase kinase-3 beta (GSK3B, Homo sapiens, UniProt P49841)).
It gave 74% for remaining binding (Serine/threonine-protein kinase D3 (PRKD3, Homo sapiens, UniProt O94806)).
Mitogen-activated protein kinase kinase kinase 3 (MAP3K3, Homo sapiens, UniProt Q99759) — remaining binding: 66%.

Mixed results
MKNK1: MAP kinase-interacting serine/threonine-protein kinase 1 (MKNK1, Homo sapiens, UniProt Q9BUB5)
UniProt Q9BUB5, sequence (whole entry, looked up): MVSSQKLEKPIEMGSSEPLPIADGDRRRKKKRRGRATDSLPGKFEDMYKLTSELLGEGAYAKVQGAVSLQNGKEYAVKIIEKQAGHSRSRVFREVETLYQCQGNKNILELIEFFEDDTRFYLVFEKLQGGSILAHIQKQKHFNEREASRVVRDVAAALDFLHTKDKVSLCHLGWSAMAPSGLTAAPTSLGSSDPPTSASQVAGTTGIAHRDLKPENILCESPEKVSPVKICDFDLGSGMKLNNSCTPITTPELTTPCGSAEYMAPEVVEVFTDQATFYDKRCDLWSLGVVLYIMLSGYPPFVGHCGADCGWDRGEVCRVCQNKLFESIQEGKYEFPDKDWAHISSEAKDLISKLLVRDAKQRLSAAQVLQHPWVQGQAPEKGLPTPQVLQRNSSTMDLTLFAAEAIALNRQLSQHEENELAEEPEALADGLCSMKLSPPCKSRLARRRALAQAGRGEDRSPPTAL
`c1cc(-c2cnn3cc(-c4ccc(OCCN5CCCCC5)cc4)cnc23)ccn1` has a remaining activity of 40.4% (MKNK1; enzyme activity, inhibitor; 0.5 µM; relative to: control).
`H2BC3 (Homo sapiens, UniProt P33778)`: interaction screen “cross-linked” (H2AC12 (Homo sapiens, UniProt Q96KK5); cross-linking MS; hits only).
`O=c1c(-c2ccc(F)cc2)c(-c2ccncc2)[nH]n1-c1ccc(Cl)cc1` gave a remaining activity of 93.9% (MKNK1; enzyme activity, inhibitor; 0.5 µM; relative to: control).

Some of these lines once more (mixed results):
`H2BC3 (Homo sapiens, UniProt P33778)`: interaction screen “cross-linked” (H2AC12 (Homo sapiens, UniProt Q96KK5); cross-linking MS; hits only).
`O=c1c(-c2ccc(F)cc2)c(-c2ccncc2)[nH]n1-c1ccc(Cl)cc1` gave a remaining activity of 93.9% (MKNK1; enzyme activity, inhibitor; 0.5 µM; relative to: control).
